Results of several laboratories.
Compare with care: the assays were run in different laboratories. Values joined by “and” are separate records of one study, mostly repeats; a detail may differ.
MAPK8: Mitogen-activated protein kinase 8 (MAPK8, Homo sapiens, UniProt P45983)
Sequence of UniProt P45983 (whole entry, unmodified, looked up): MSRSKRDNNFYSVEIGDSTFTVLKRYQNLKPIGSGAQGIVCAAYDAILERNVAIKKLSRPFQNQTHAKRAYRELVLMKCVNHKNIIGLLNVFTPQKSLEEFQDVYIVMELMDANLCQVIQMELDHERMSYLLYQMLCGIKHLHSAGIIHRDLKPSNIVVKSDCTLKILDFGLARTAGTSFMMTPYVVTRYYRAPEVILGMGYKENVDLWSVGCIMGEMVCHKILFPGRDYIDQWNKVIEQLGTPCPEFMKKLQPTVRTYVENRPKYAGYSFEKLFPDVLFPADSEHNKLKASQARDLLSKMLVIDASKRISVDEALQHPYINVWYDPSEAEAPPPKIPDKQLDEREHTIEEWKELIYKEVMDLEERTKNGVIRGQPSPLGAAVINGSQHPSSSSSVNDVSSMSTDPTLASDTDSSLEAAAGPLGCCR
MAPK8 C116S: Mitogen-activated protein kinase 8 (MAPK8, Homo sapiens, UniProt P45983, C116S)

SMILES | target | test | conditions | how to read | quantity | value
CC(=O)Nc1ccc(-c2ccnc(NCC3CCC3)n2)cc1 | MAPK8 | cell-free assay, competition with immobilised ligand | 10 µM |  | remaining binding | 0.95%
Cc1ccc(-c2c(/C=C(\C#N)C(=O)NC(C)C)n(CCCO)c3ncnc(N)c23)cc1 | MAPK8 | binding, competition with immobilised ligand | 1 µM |  | remaining binding | 100%
CNC(=O)C[C@H](Cc1ccc(C#N)cc1)NC(=O)c1cc(-c2ccc(CN[C@H](C)c3ccc(C)cc3)o2)ccc1Cl | MAPK8 | enzyme activity, inhibitor | 1 µM |  | activity vs control | 102%
NC(=O)[C@@H](O)C[C@H]1CCc2sc3ncnc(O[C@H]4CC[C@H](N5CCOCC5)CC4)c3c21 | MAPK8 | enzyme activity, inhibitor | 10 µM |  | inhibition | -3%
Cc1cccc(-c2ccc3nc(NC(=O)C4CCOCC4)nn3c2)c1 | MAPK8 | enzyme activity, Dundee kinase panel | 10 µM |  | remaining activity | 102%
CCn1cc(C(=O)O)c(=O)c2c(N)c(F)c(NC3CCCCC3)cc21 | MAPK8 | kinase activity | 0.1 µM, together with: ATP at Km |  | inhibition | 1.5%
COC(=O)[C@@]1(C)C=C(C(=O)OC(C)(C)C)C(=O)CC1 | MAPK8 | D-peptide binding, inhibitor, FP peptide displacement | 250 µM | lower is stronger displacement | fraction bound | 0.333
Cc1cnc2nc1Nc1cccc(c1)COC/C=C/COCc1cc(ccc1OCCN1CCOCC1)N2 | MAPK8 | cell-free assay | 0.1 µM |  | remaining signal | 53%
COc1cc(Nc2nccc(-c3cnn4nc(OC)ccc34)n2)cc(C(F)(F)F)c1 | MAPK8 | binding, competition with immobilised ligand | 1 µM |  | remaining binding | 83%
C=CC(=O)Nc1cccc(-c2cnc3[nH]cc(C(=O)NC(C)(C)C)c3n2)c1 | MAPK8 | kinase activity | 0.1 µM |  | inhibition | -2% and 0%
Cc1cc(NC(=O)c2cccc(NC(=O)/C(C#N)=C/C(C)(C)C)c2)ccc1Nc1nccc(-c2cccnc2)n1 | MAPK8 C116S | noncovalent binding, SPR | 100, 300, 1000 nM, two-step kinetic model |  | kon | 110000 M⁻¹ s⁻¹
CN1CCN(Cc2ccc(NC(=O)c3cccc(C#Cc4cnc(N)c5ncccc45)c3)cc2C(F)(F)F)CC1 | MAPK8 | cell-free assay, competition with immobilised ligand | 0.5 µM |  | remaining binding | 70%
C#CCOC(=O)[C@@]1(C)C=C(C(=O)OC(C)(C)C)C(=O)CC1 | MAPK8 | enzyme activity, D-SENSOR | 0.1829 µM, single replicate |  | normalized kinase activity | 0.955 and 0.868 and 1.09
COC(=O)[C@@]1(C)C=C(C(=O)Nc2cccc(C(=O)Nc3ccc(Nc4nccc(-c5cccnc5)n4)c(C)c3)c2)C(=O)CC1 | MAPK8 | enzyme activity, inhibitor | 0.1829 µM, 6 h, unit not given, together with: GSH 10 mM pre-incubation | reference: vehicle | remaining activity | 0.165
COC(=O)[C@]1(Cc2ccccc2)C=C(C(=O)OC(C)(C)C)C(=O)CC1 | MAPK8 | D-peptide binding, inhibitor, FP peptide displacement | 15.62 µM | lower is stronger displacement | fraction bound | 0.325
C=C1CCCCCCCCCC(CO)C1=O (centres unmarked) | MAPK8 | cell-free assay, competition with immobilised ligand | 10 µM |  | remaining binding | 99%
CCN1CCN(Cc2ccc(C(=O)Nc3ccc(C)c(NCc4cnc5[nH]ccc5c4OC)c3)cc2C(F)(F)F)CC1 | MAPK8 | binding, competition with immobilised ligand | 1 µM |  | remaining binding | 100%
Nc1ncc2c(n1)-c1c([nH]c3ccc(C4=CCOCC4)cc13)CCC2 | MAPK8 | binding, competition with immobilised ligand | 1 µM |  | remaining binding | 76%
COC(=O)[C@@]1(C)C=C(C(=O)NCc2cccc(C(=O)Nc3ccc(Nc4nccc(-c5cccnc5)n4)c(C)c3)c2)C(=O)CC1 | MAPK8 C116S | noncovalent binding, SPR | 100, 300, 1000 nM, two-step kinetic model |  | kon | 340000 M⁻¹ s⁻¹
CN1CCN(Cc2ccc(-c3ccc(CO[C@H]4CCC[C@@H]4NC(=O)c4cc(-c5cnn(C)c5)cnc4N)cc3)cc2)CC1 | MAPK8 | enzyme activity, inhibitor | 0.1 µM |  | inhibition | 6%
CNS(=O)(=O)Nc1nccc(Cc2c(C)c3ccc(Oc4ncccc4F)cc3oc2=O)c1F | MAPK8 | binding, competition with immobilised ligand | 10 µM |  | remaining binding | 76%
CC(C)(C)OC(=O)C1=C[C@@](C)(C(=O)OCC#Cc2ccncc2)CCC1=O | MAPK8 | D-peptide binding, inhibitor, FP peptide displacement | 6.25 µM | lower is stronger displacement | fraction bound | 0.835
C=C1C[C@@]2(C(=O)OC)C=C(C(=O)Nc3cccc(C(=O)Nc4ccc(Nc5nccc(-c6cccnc6)n5)c(C)c4)c3)C(=O)[C@@H]1C2 | MAPK8 | SPR two-step binding model | reversible bond formation |  | ΔΔG bond formation contribution | -2.5 kcal/mol
CNC1C[S+]2CC[S+]3CC[S+](C1)[Ru-4]321([N]=C=S)[n]2c3ccc(OC)cc3c3c4c(c5cc(F)c[n+]1c5c32)C(=O)NC4=O (centres unmarked) | MAPK8 | KinomeScan | 0.1 µM | reference: untreated | remaining binding | 100%
CC(C)=CC1OC(C)(C)C2C=C3C(=O)C(Cl)=CC(O)C3C3C(O)C4OC4C(=O)C132 (centres unmarked) | MAPK8 | cell-free assay, competition with immobilised ligand | 10 µM |  | remaining binding | 68%
CN(C)c1ccc(C#CCOC(=O)[C@]2(C)C=C(C(=O)OC(C)(C)C)C(=O)CC2)cc1 | MAPK8 | D-peptide binding, inhibitor, FP peptide displacement | 62.5 µM | lower is stronger displacement | fraction bound | 0.217
C=CC(=O)N1CCCC(n2c(=O)c3ncccc3n(Cc3ccc(Oc4ccccc4)cc3)c2=O)C1 (centres unmarked) | MAPK8 | binding, competition with immobilised ligand | 1 µM |  | remaining binding | 78%
CN(C)c1ccc(-n2cc(COC(=O)[C@]3(C)C=C(C(=O)OC(C)(C)C)C(=O)CC3)nn2)cc1 | MAPK8 | D-peptide binding, inhibitor, FP peptide displacement | 6.25 µM | lower is stronger displacement | fraction bound | 0.84
Cc1cccc(O[C@H]2CCC[C@@H](C(C)CNCc3ccncc3)C2)c1 (relative stereo) | MAPK8 | kinase activity, kinome panel screening | 1 µM |  | inhibition | 0%

A few entries again:
SMILES | target | test | conditions | how to read | quantity | value
CC(C)=CC1OC(C)(C)C2C=C3C(=O)C(Cl)=CC(O)C3C3C(O)C4OC4C(=O)C132 (centres unmarked) | MAPK8 | cell-free assay, competition with immobilised ligand | 10 µM |  | remaining binding | 68%
CC(=O)Nc1ccc(-c2ccnc(NCC3CCC3)n2)cc1 | MAPK8 | cell-free assay, competition with immobilised ligand | 10 µM |  | remaining binding | 0.95%
CN1CCN(Cc2ccc(NC(=O)c3cccc(C#Cc4cnc(N)c5ncccc45)c3)cc2C(F)(F)F)CC1 | MAPK8 | cell-free assay, competition with immobilised ligand | 0.5 µM |  | remaining binding | 70%
C=C1C[C@@]2(C(=O)OC)C=C(C(=O)Nc3cccc(C(=O)Nc4ccc(Nc5nccc(-c6cccnc6)n5)c(C)c4)c3)C(=O)[C@@H]1C2 | MAPK8 | SPR two-step binding model | reversible bond formation |  | ΔΔG bond formation contribution | -2.5 kcal/mol
Cc1cc(NC(=O)c2cccc(NC(=O)/C(C#N)=C/C(C)(C)C)c2)ccc1Nc1nccc(-c2cccnc2)n1 | MAPK8 C116S | noncovalent binding, SPR | 100, 300, 1000 nM, two-step kinetic model |  | kon | 110000 M⁻¹ s⁻¹
